Published values pooled from the literature.
Organism: Staphylococcus aureus

| SMILES | test | system | conditions | MIC |
| --- | --- | --- | --- | --- |
| CC[C@H](C)[C@H](NC(=O)[C@@H](Cc1ccccc1)NC)C(=O)N[C@@H](CO)C(=O)N[C@H](CCC(N)=O)C(=O)N[C@@H](C(=O)N[C@H](C(=O)N[C@@H](CO)C(=O)N[C@H]1C(=O)N[C@@H](C)C(=O)N[C@@H](C2CCCCC2)C(=O)N[C@@H]([C@@H](C)CC)C(=O)O[C@H]1C)[C@@H](C)CC)[C@@H](C)CC | broth microdilution | ATCC 29213, MSSA, Mueller-Hinton broth | 16 h, 37 °C | 1 µg/mL |
| O=C1c2ccccc2NC(c2ccc(O)c(O)c2)N1/N=C/c1ccc(O)c(O)c1 (centres unmarked) | microbial growth, broth dilution |  | 24 h, drug-resistant strain, clinical isolate | 64 µg/mL |
| CC[C@H](C)[C@H](NC(=O)[C@H](CC(C)C)NC(=O)[C@H](CC(=O)O)NC(=O)[C@H](CO)NC(=O)[C@H](CCCNC(=N)N)NC(=O)[C@@H](N)CO)C(=O)N[C@H](C(=O)N[C@@H](Cc1c[nH]cn1)C(=O)N[C@@H](CCC(N)=O)C(=O)N[C@@H](CCCNC(=N)N)C(=O)N[C@@H](CC(C)C)C(=O)N[C@@H](Cc1ccccc1)C(N)=O)C(C)C | broth microdilution | Mueller Hinton broth |  | > 400 µg/mL |
| CC(C)C[C@@H]1NC(=O)[C@H](C)NC(=O)[C@H](NC(=O)[C@H](CO)NC(=O)[C@@H](CCCCN)NC(=O)[C@@H](C)NC(=O)[C@@H](N)Cc2ccccc2)[C@H](C(N)=O)OC(=O)[C@H](CC(C)C)NC1=O |  | MRSA ATCC 700698 | TFA salt | 32 µg/mL |
| CC(=O)N[C@@H](CCCNC(=N)N)C(=O)N[C@@H](Cc1c[nH]c2ccccc12)C(=O)N[C@@H](CCCNC(=N)N)C(=O)N[C@@H](Cc1c[nH]c2ccccc12)C(=O)N[C@@H](Cc1c[nH]c2ccccc12)C(=O)N[C@@H](CCCCN)C(=O)N1CCC[C@H]1C(=O)N[C@H](C(N)=O)C(C)C |  | MRSA ATCC 33591, Mueller-Hinton broth | overnight, 37 °C | > 90.8 µM |
| CC[C@H](C)[C@H](NC(=O)[C@H](CC(=O)O)NC(=O)[C@H](Cc1ccccc1)NC(=O)[C@H](CC(C)C)NC(=O)[C@@H](N)CCCCN)C(=O)N[C@H](C(=O)N[C@@H](CCCCN)C(=O)N[C@@H](CCCCN)C(=O)N[C@H](C(=O)N[C@H](C(=O)NCC(=O)N[C@@H](C)C(=O)N[C@@H](CC(C)C)C(=O)NCC(N)=O)C(C)C)C(C)C)C(C)C |  | SH1000 GFP-expressing, nutrient broth | 20 h, 37 °C | > 100 µM |
| CC[C@H](C)[C@H](N)C1=N[C@H](C(=O)N[C@@H](CC(C)C)C(=O)N[C@H](CCC(=O)O)C(=O)N[C@@H](Cc2ccccc2)C(=O)N[C@H]2CCCCNC(=O)[C@H](CC(N)=O)NC(=O)[C@@H](CC(=O)O)NC(=O)[C@H](Cc3c[nH]cn3)NC(=O)[C@@H](Cc3ccccc3)NC(=O)[C@H]([C@@H](C)CC)NC(=O)[C@@H](CCCN)NC2=O)CS1 |  | USA300 MRSA | 18 h, 37 °C, added: ZnSO4 0.3 mM | 4 µg/mL |
| CNS(=O)(=O)c1ccc(-n2nnc(/C(C)=N/NC(=N)N)c2C)cc1 | microbial growth, broth dilution | MRSA USA300 | drug-resistant strain | > 64 µg/mL |
| CCCCCCCCCCCCCCCC(=O)N[C@@H](CCCCN)C(=O)N1CCC[C@H]1C(=O)N[C@H](C(N)=O)C(C)C | broth microdilution | MSSA ATCC 29213 | Mueller-Hinton broth | 11.4 µM |
| CC(C)C[C@H](NC(=O)[C@H](CC(C)C)NC(=O)[C@H](CCCCN)NC(=O)CNC(=O)[C@H](CC(C)C)NC(=O)[C@H](CC(C)C)NC(=O)[C@H](CO)NC(=O)[C@H](CC(C)C)NC(=O)[C@H](CC(C)C)NC(=O)[C@@H]1CCCN1C(=O)[C@H](CC(C)C)NC(=O)[C@H](CC(C)C)NC(=O)CN)C(N)=O | broth microdilution | USA300 MRSA |  | 1.56 µM |
| CN1C(=O)[C@@H]2NC(=O)[C@@H]3NC(=O)[C@@H](c4ccc(O)cc4)NC(=O)[C@H](NC(=O)C(NCc4cccc(-c5ccc(F)cc5)c4)c4ccc(O)cc4)Cc4c[nH]c5cc(ccc45)-c4cc3cc(c4O)Oc3ccc(cc3)C[C@H]1C(=O)N[C@@H](C(=O)O)c1ccc(O)c(c1)Oc1ccc2cc1 (some centres unmarked) |  | ATCC 33591 MRSA, Mueller-Hinton broth |  | > 128 µg/mL |
| COc1cccc(C2Nc3ccccc3C3=[O+][Cu-2]4([Cl])[O]c5c(cccc5OC)C=[N+]4N32)c1O (centres unmarked) | broth microdilution | MRSA clinical isolate SA 630 | 24 h, 37 °C | 16 µg/mL |
| CC(C)CCCCCCCCC/C=C/C(=O)N[C@@H](CC(=O)O)C(=O)N[C@H]1CNC(=O)[C@@H]2CCCN2C(=O)[C@H](C)NC(=O)[C@@H]([C@@H](C)O)NC(=O)CNC(=O)[C@H](CC(=O)O)NC(=O)CNC(=O)[C@H](CC(=O)O)NC(=O)CNC(=O)[C@H]2CCCCN2C1=O |  | MRSA USA300 | added: Ca2+ 10 mM | 8 µg/mL |
| CCCO[C@H]1[C@H](O)[C@@H](N)[C@@H](O[C@H]2[C@H](O[C@@H]3O[C@H](CO)[C@@H](O[C@H]4O[C@@H](CN)[C@@H](O)[C@H](O)[C@H]4N)[C@H]3O)[C@@H](O)[C@H](N)C[C@@H]2N)O[C@@H]1CO | broth microdilution | MRSA isolate AG 038 |  | 8 to 16 µg/mL |
| CC(CCCOC(=O)CCC[N+](C)(C)C)C1CCC2C3CCC4CC(OC(=O)CCC[N+](C)(C)C)CCC4(C)C3CC(OC(=O)CCC[N+](C)(C)C)C12C (centres unmarked) | microbial growth | ATCCBAA44 MRSA | drug-resistant strain | 19.5 µg/mL |
| CC(C)C[C@H](NC(=O)[C@H](CC(C)C)NC(=O)[C@H](C)NC(=O)[C@H](NC(=O)[C@H](CO)NC(=O)[C@@H](CCCCN)NC(=O)[C@@H](CC(C)C)NC(=O)[C@@H](N)Cc1ccccc1)[C@@H](O)C(N)=O)C(=O)O |  | MRSA ATCC 700698 | TFA salt | > 32 µg/mL |
| CC[C@H](C)[C@H](NC(=O)[C@H](CCCCN)NC(=O)[C@H](CC(N)=O)NC(=O)[C@H](Cc1c[nH]c2ccccc12)NC(=O)[C@H](Cc1ccccc1)NC(=O)[C@H](CCCCN)NC(=O)[C@H](CCCCNC(=N)N)NC(=O)[C@H](CC(C)C)NC(=O)[C@H](Cc1c[nH]c2ccccc12)NC(=O)[C@H](CCCCN)NC(=O)[C@H](CCCCNC(=N)N)NC(=O)[C@H](CC(C)C)NC(=O)CNC(C)=O)C(=O)N[C@@H](CCCCN)C(=O)N[C@@H](CCCCNC(=N)N)C(N)=O |  |  | 12 h, added: plasma pretreatment | 6.25 µM |
| N=C(N)NCCC[C@@H]1NC(=O)[C@H](CCCNC(=N)N)NC(=O)[C@H](CCCNC(=N)N)NC(=O)[C@H](CCCNC(=N)N)NC(=O)[C@H](Cc2c[nH]c3ccccc23)NC(=O)[C@H](CCCNC(=N)N)NC(=O)[C@H](CCCNC(=N)N)NC(=O)[C@@H](N)CCn2cc(nn2)C[C@@H](C(N)=O)NC1=O |  |  | 24 h, 37 °C, in 0.01% acetic acid | 62.5 µg/mL |
| CN1C(=O)[C@@H]2NC(=O)[C@@H]3NC(=O)[C@@H](c4ccc(O)cc4)NC(=O)[C@H](NC(=O)C(NCc4ccccn4)c4ccc(O)cc4)Cc4c[nH]c5cc(ccc45)-c4cc3cc(c4O)Oc3ccc(cc3)C[C@H]1C(=O)N[C@@H](C(=O)O)c1ccc(O)c(c1)Oc1ccc2cc1 (some centres unmarked) |  | ATCC 33591 MRSA, Mueller-Hinton broth |  | 64 µg/mL |
| CC(C)[C@H](NC(=O)[C@H](CCCCN)NC(=O)[C@H](CCCNC(=N)N)NC(=O)CNC(=O)[C@H](C)NC(=O)[C@H](CC(N)=O)NC(=O)[C@H](CCCNC(=N)N)NC(=O)[C@@H](NC(=O)[C@H](CCCCN)NC(=O)[C@H](CC(=O)O)NC(=O)[C@@H](NC(=O)[C@@H](NC(=O)[C@H](CCCNC(=N)N)NC(=O)[C@H](CCCNC(=N)N)NC(=O)[C@H](Cc1c[nH]c2ccccc12)NC(=O)[C@H](Cc1c[nH]c2ccccc12)NC(=O)CN)[C@@H](C)O)C(C)C)C(C)C)C(=O)O | bacterial growth | MRSA, ESBL-positive | 18 h | > 256 µg/mL |
| CC(C)C[C@@H]1NC(=O)[C@@H](CC(C)C)NC(=O)[C@H](CCN)NC(=O)[C@@H](NC(=O)[C@H](CCN)NC(=O)[C@@H](NC(=O)CCOCCOCCOCCn2cc(C[C@H](NC(=O)CC[C@@H]3NC(=O)[C@H](CCN)NC(=O)[C@H](Cc4ccc(O)cc4)NC(=O)[C@H]([C@@H](C)O)NC(=O)[C@H](C(C)C)NC(=O)[C@@H]4CCCN4C(=O)[C@@H](C)NC(=O)[C@H](CO)NC(=O)[C@H](C)NC(=O)[C@H](C(C)(C)C)NC(=O)[C@H](CCO)NC(=O)[C@H](Cc4c[nH]c5ccccc45)NC(=O)[C@H](CCO)NC(=O)[C@@H](CCN)NC3=O)C(N)=O)nn2)[C@@H](C)O)CCNC(=O)[C@H]([C@@H](C)O)NC(=O)[C@H](CCN)NC(=O)[C@H](CCN)NC1=O | broth microdilution | MRSA USA300, CAMHB with polysorbate-80 | 16 h | > 64 µg/mL |
| CCCCCCCCCCCCCCN1C(=O)/C(=N\NC(=N)N)c2cc(C)ccc21 | broth microdilution | BAA41 MRSA | 18 h, 37 °C | > 192 µg/mL |
| COc1ccc2ccc3c(c2c1)C=[N+]1C2CCCCC2[N+]2=Cc4cc(C(C)(C)C)cc(C(C)(C)C)c4[O][Au-]21[O]3.F[P-](F)(F)(F)(F)F (centres unmarked) | bacterial growth, broth microdilution | vancomycin-intermediate | 24 h | 10 µM |

Excerpt of the above:
| SMILES | test | system | conditions | MIC |
| --- | --- | --- | --- | --- |
| CC(=O)N[C@@H](CCCNC(=N)N)C(=O)N[C@@H](Cc1c[nH]c2ccccc12)C(=O)N[C@@H](CCCNC(=N)N)C(=O)N[C@@H](Cc1c[nH]c2ccccc12)C(=O)N[C@@H](Cc1c[nH]c2ccccc12)C(=O)N[C@@H](CCCCN)C(=O)N1CCC[C@H]1C(=O)N[C@H](C(N)=O)C(C)C |  | MRSA ATCC 33591, Mueller-Hinton broth | overnight, 37 °C | > 90.8 µM |
| CC[C@H](C)[C@H](N)C1=N[C@H](C(=O)N[C@@H](CC(C)C)C(=O)N[C@H](CCC(=O)O)C(=O)N[C@@H](Cc2ccccc2)C(=O)N[C@H]2CCCCNC(=O)[C@H](CC(N)=O)NC(=O)[C@@H](CC(=O)O)NC(=O)[C@H](Cc3c[nH]cn3)NC(=O)[C@@H](Cc3ccccc3)NC(=O)[C@H]([C@@H](C)CC)NC(=O)[C@@H](CCCN)NC2=O)CS1 |  | USA300 MRSA | 18 h, 37 °C, added: ZnSO4 0.3 mM | 4 µg/mL |
